Experimental data from different studies.
Protocols differ between the studies behind these lines. “And” joins repeats or separate records; there may be more than shown. ± marks the error that the study gave.
Chain of UniProt Q9NYA1 (whole entry, looked up): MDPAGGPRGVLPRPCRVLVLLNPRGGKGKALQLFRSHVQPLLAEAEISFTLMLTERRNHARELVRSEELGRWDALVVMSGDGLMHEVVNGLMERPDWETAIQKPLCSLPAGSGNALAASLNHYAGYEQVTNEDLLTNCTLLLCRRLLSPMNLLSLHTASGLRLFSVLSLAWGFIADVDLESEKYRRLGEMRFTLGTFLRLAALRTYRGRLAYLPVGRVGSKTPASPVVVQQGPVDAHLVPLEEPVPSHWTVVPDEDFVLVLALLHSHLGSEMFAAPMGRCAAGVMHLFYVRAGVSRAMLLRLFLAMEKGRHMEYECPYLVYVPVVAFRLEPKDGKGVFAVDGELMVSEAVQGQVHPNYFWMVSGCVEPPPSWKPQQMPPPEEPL
Chain of UniProt Q9UEE5 (whole entry, looked up): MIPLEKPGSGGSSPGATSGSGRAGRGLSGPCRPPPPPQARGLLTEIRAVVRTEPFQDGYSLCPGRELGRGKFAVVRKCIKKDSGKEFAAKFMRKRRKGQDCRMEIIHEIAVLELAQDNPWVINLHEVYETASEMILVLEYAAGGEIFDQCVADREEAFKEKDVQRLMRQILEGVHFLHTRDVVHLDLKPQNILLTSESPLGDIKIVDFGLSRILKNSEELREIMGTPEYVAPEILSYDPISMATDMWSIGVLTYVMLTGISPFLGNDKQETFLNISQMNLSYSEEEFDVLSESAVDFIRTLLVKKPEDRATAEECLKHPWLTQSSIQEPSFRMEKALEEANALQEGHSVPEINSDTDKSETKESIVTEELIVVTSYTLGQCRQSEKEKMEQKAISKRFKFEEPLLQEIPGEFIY
Chain of UniProt Q9UM73 (whole entry, looked up): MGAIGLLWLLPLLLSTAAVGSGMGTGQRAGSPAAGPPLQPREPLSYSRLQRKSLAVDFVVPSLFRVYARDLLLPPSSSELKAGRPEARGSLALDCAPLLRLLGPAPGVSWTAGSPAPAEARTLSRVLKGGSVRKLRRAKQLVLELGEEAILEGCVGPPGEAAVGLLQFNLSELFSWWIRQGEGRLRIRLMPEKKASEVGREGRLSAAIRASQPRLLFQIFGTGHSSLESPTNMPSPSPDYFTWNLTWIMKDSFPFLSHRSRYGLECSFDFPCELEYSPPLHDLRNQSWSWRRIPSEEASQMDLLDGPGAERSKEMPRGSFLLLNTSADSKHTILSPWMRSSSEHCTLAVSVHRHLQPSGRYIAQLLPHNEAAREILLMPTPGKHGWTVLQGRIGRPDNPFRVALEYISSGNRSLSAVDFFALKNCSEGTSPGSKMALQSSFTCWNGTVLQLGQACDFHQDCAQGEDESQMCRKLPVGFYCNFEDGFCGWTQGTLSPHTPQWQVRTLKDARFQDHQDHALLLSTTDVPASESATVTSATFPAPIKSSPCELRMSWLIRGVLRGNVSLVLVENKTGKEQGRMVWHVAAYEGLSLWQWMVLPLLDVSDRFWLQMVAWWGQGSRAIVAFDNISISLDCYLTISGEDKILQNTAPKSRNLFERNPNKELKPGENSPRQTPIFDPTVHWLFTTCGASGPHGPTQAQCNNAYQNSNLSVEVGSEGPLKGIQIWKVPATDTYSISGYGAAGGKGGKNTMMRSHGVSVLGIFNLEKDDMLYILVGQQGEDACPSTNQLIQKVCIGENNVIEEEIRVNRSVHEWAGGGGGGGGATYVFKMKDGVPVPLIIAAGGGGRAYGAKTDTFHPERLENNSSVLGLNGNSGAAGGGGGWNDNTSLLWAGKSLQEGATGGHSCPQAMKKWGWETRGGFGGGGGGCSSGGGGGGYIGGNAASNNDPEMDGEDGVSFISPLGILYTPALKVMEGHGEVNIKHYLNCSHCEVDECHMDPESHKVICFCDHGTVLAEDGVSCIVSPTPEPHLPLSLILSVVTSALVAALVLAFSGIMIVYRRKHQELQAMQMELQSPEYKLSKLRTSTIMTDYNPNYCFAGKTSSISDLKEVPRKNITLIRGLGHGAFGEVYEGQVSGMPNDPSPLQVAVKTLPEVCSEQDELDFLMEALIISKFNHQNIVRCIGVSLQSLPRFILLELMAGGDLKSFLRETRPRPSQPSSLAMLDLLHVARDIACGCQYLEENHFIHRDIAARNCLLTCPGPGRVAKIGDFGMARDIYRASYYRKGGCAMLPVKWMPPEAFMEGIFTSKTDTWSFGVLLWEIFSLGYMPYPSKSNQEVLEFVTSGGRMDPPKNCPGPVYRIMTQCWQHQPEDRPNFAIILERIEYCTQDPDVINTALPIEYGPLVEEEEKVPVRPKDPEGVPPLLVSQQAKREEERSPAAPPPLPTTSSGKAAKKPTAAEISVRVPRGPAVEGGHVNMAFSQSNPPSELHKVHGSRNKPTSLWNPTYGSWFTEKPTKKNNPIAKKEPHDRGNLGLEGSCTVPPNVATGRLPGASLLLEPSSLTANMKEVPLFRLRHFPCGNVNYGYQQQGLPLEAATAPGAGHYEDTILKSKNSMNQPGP
Chain of UniProt Q96S44 (whole entry, looked up): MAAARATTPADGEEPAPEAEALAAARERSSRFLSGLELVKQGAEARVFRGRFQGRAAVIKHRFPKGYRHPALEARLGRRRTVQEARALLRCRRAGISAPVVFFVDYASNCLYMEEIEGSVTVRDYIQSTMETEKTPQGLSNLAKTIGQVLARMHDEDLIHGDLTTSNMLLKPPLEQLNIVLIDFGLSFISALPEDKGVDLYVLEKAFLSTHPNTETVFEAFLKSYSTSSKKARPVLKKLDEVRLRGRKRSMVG

Compound	target or system	assay	system	conditions	how to read	measurement	result
OC(c1cc(C(F)(F)F)nc2c(C(F)(F)F)cccc12)C1CCCCN1 (stereo not drawn)	Plasmodium falciparum	parasite growth	W2Mef	–	–	EC50	25 ± 2.8 nM
O=S(=O)(c1ccc(-c2ccc3ncnc(Nc4ccc(OCc5cccc(F)c5)c(Cl)c4)c3c2)cc1)N1CCCCC1	Plasmodium falciparum	parasite growth, SYBR Green fluorescence	C235 (TM91C235), drug-resistant	–	–	EC50	240 nM
CCCN(Cc1nnc(-c2ccco2)o1)C(=O)C1CCCN(C(=O)c2ccc(Cl)cc2)C1 (stereo not drawn)	Plasmodium falciparum	parasite growth, SYBR Green	3D7 wild type	72 h	–	EC50	163 ± 49 nM
O=C1NC2(CC2)COc2ncc(F)cc2[C@H]2COCCN2c2ccn3ncc1c3n2	–	–	Sprague-Dawley rat, female, serum	oral, 2.5 mg/kg/day, end of recovery, 4-week subacute toxicity	–	serum urea	3.65 ± 0.27 mmol/L
Cc1cc(Nc2ccc(Cl)cc2)n2nc(C(F)(F)F)nc2n1	Plasmodium falciparum	parasite growth	–	–	–	EC50	3220 ± 1300 nM
C[C@H]1Cc2c([nH]c3cc(Cl)c(F)cc23)[C@@]2(N1)C(=O)Nc1ccc(Cl)cc12	Plasmodium falciparum	parasite growth	Dd2-ATV	–	–	EC50	1.9 ± 0.1 nM
C[C@H](NC(=O)[C@@H](O)c1cc(F)cc(F)c1)C(=O)N[C@@H]1C(=O)N(C)c2ccccc2-c2ccccc21	dengue virus 2	viral replication, luciferase reporter virus	Huh-7.5.1	–	–	EC50	5 nM
O=S(=O)(c1ccc(-c2ccc3ncnc(Nc4ccc(OCc5ccc(F)cc5)c(Cl)c4)c3c2)cc1)N1CCOCC1	Plasmodium falciparum	parasite growth, SYBR Green fluorescence	C235 (TM91C235), drug-resistant	–	–	EC50	240 nM
Cc1nc2c(C#N)cccc2n1-c1ccc(C(=O)NC2CC2)s1	Plasmodium falciparum	parasite growth, SYBR Green	3D7	72 h	–	EC50	77.1 nM
O=C1NC(=O)c2c1c1cc(F)c[n+]3c1c1c2c2cc(O)ccc2[n]1[Ru-4]312([N]=C=S)[S+]3CC[S+]1CC[S+]2CC3 (stereo not drawn)	Serine/threonine-protein kinase 17A (STK17A, Homo sapiens, UniProt Q9UEE5)	enzyme activity	–	100 nM, human enzyme, together with: 10 µM ATP	reference: untreated	remaining activity	59%
Cc1cc(Cl)ccc1OC(C)C(=O)N1CCc2ccccc21 (stereo not drawn)	Plasmodium falciparum	parasite growth	Dd2	–	–	EC50	155 ± 57 nM
CC(C)(C)C(=O)OCOP(=O)(OCOC(=O)C(C)(C)C)C1CCCN(O)C1=O (stereo not drawn)	SNB-75	–	–	–	–	log LC50	> -4 log M
O=S(=O)(c1ccc(-c2ccc3ncnc(Nc4ccc(OCc5cccc(F)c5)c(Cl)c4)c3c2)cc1)N1CCCC1	Plasmodium falciparum	parasite growth, SYBR Green fluorescence	W2, drug-resistant	–	–	EC50	800 nM
O=C1C(O)=C([C@H]2CC[C@H](c3ccc(Cl)cc3)CC2)C(=O)c2ccccc21	Plasmodium falciparum	parasite growth	CAM3 REV	–	–	EC50	0.7 ± 0.3 nM
C[C@H](NC(=O)Cc1cc(F)cc(F)c1)C(=O)N[C@@H]1C(=O)N(C)c2ccccc2-c2ccccc21	Dengue virus	viral replication, inhibitor, luciferase	NHDF	48 h	–	EC50	106 nM
CS(C)(=O)=Nc1ccc(-c2ccc(-c3nc4cc(O[C@@H]5CO[C@H]6[C@@H]5OC[C@H]6O)[nH]c4cc3F)cc2)cc1	ALK tyrosine kinase receptor (ALK, Homo sapiens, UniProt Q9UM73)	enzyme activity, inhibitor	–	10 µM	–	inhibition	2%
Fc1cccc(COc2ccc(Nc3ncnc4ccc(-c5ccc(N6CCNCC6)cc5)cc34)cc2Cl)c1	Plasmodium falciparum	parasite growth, SYBR Green	D6	blood stage	–	EC50	380 nM
CC(C)[C@H]1NC(=O)C[C@H]2/C=C/CCSSC[C@@H](NC1=O)C(=O)N[C@H](Cc1cccc3ccccc13)C(=O)NCC(=O)O2	Sphingosine kinase 1 (SPHK1, Homo sapiens, UniProt Q9NYA1)	enzyme activity, inhibitor	–	10 µM	–	inhibition	-3.6%

Compound	target or system	assay	system	conditions	how to read	measurement	result
CC1(C)Cc2sc(NC(=O)Cc3ccc(S(N)(=O)=O)cc3)c(C#N)c2CN1CC1CCCCC1	Dengue virus 2	viral replication	P15-S9 passaged with DMSO	–	–	EC50	5.89 nM and 6.57 nM
c1ccc(COc2ccc(Nc3ncnc4ccc(-c5cccc(N6CCOCC6)c5)cc34)cc2)cc1	Plasmodium falciparum	parasite growth, SYBR Green	D6	blood stage	–	EC50	> 15000 nM
COc1ccccc1-c1n[nH]c2nc(NC3CCN(C(=O)Cc4ccc(F)cc4F)CC3)ncc12	–	bead binding, competition bead pull-down, refers to: LINJ.29.0860	Leishmania donovani extract	10 µM	reference: vehicle	relative abundance	0.99
CC(NC(=O)c1cccc(C(c2ccccc2)N2C(=N)NC(C)(C(C)C)CC2=O)c1)c1ccccc1 (stereo not drawn)	Plasmodium falciparum	parasite growth	K1	–	–	EC50	12.3 nM
COc1ccccc1-c1n[nH]c2nc(N[C@H]3CC[C@H](NS(=O)(=O)CC(C)C)CC3)ncc12	–	bead binding, competition bead pull-down, refers to: LINJ.25.2450	Leishmania donovani extract	10 µM	reference: vehicle	relative abundance	1.08
CC(C)(C)OC(=O)N1CCN(S(=O)(=O)c2ccc(-c3ccc4ncnc(Nc5ccc(OCc6cccc(F)c6)c(Cl)c5)c4c3)cc2)CC1	Plasmodium falciparum	parasite growth, SYBR Green fluorescence	W2, drug-resistant	–	–	EC50	580 nM
Cc1nc2cccc(OCC(C)(C)C(=O)NC(C)C)c2c(N)c1C(=O)[O-].[Na+]	Salmonella typhimurium	–	TA98	0.80 mg per plate, without S9, preincubation	–	revertant colonies per plate	23 ± 4
Cc1cc(C(=O)Nc2nc3cccc(C)c3n2[C@H]2CCCCN(C(=O)/C=C/CN(C)C)C2)ccn1	Trypanosoma brucei	–	STIB795, mouse acute HAT model	oral, 7.5 mg/kg once daily for 4 days, day 14	reference: mice	survival	16.7%
COc1ccccc1-n1c(SCC(=O)Nc2ccccc2F)nc2cccnc21	Plasmodium falciparum	parasite growth	Dd2	–	–	EC50	162 ± 44 nM
CCC1(CC)CC(=O)N(C2CCOc3ccc(C(=O)NC4CC(C)(C)Oc5ccccc54)cc32)C(=N)N1 (stereo not drawn)	Plasmodium falciparum	parasite growth	3D7	–	–	EC50	0.5 ± 0.2 nM
CC[C@H](C)[C@H](NC(=O)[C@H](CO)NC(=O)[C@H](Cc1ccc(O)cc1)NC(=O)[C@H](Cc1ccc(O)cc1)NC(=O)[C@H](CC(N)=O)NC(=O)CNC(=O)[C@H](CO)NC(=O)[C@H](Cc1ccc(O)cc1)NC(=O)[C@H](CO)NC(=O)[C@H](CO)NC(=O)[C@H](CC(N)=O)NC(=O)COCCOCCNC(=O)CN1CCN(CC(=O)O)CCN(CC(=O)O)CCN(CC(=O)O)CC1)C(=O)N[C@@H](CC(C)C)C(N)=O [copper-64 labelled]	–	dynamic PET	KPC mouse, pancreatic cancer model, blood	intravenous, 22.5 min, 49 days after tamoxifen	–	tumour uptake	3.12 %ID/mL
O=C(NCc1ccc(Cl)cn1)C(=O)C(Cc1ccccc1)NC(=O)C1CC(F)CN1C(=O)C(NC(=O)C1CCC(F)(F)CC1)C1CCCCC1 (stereo not drawn)	HCoV-HKU1	viral replication	human epithelial cells	–	–	EC50	970 nM
CC(C)(C)OCc1ccc(-c2ccc3ncnc(Nc4ccc(OCc5cccc(F)c5)c(Cl)c4)c3c2)cc1	Plasmodium falciparum	parasite growth, SYBR Green	D6	blood stage	–	EC50	600 nM
Cc1nc2ccc(-c3ccc(OC(F)(F)F)cc3)cc2c(O)c1C#N	Plasmodium falciparum	parasite growth, SYBR Green	3D7 wild type	72 h	–	EC50	158 ± 29 nM
Cc1ccc(NS(=O)(=O)c2c(C(=O)N3CCCCCC3)c(C)n(C)c2C)c(Cl)c1	HaCaT	–	–	3.704 µM, 60 h	–	viability	96.8% and 100%
CN(C)S(=O)(=O)c1ccccc1-c1ccc2ncnc(Nc3ccc(OCc4cccc(F)c4)c(Cl)c3)c2c1	Plasmodium falciparum	parasite growth, SYBR Green	D6	blood stage	–	EC50	820 nM
C[C@H](Oc1ccc(C(=O)c2ccc(F)cc2)cc1)C(=O)N1CCc2ccc(C(F)(F)F)cc21	Plasmodium falciparum	parasite growth, SYBR Green	3D7	72 h	–	EC50	28.3 nM
CN(C)[C@H]1C[C@@]23CC[C@@]4(O2)C(=CC[C@]2(C)[C@@H](c5ccc6ccncc6c5)CC[C@H]24)C=C3[C@@H](O)[C@@H]1O	EKC/KEOPS complex subunit TP53RK (TP53RK, Homo sapiens, UniProt Q96S44)	ATP probe labelling, inhibitor, KiNativ profiling	–	0.1 µM	–	inhibition	10.4%
